Values quoted from earlier work as cited in several papers.
Compare with care: the assays were run in different laboratories. ± gives the spread as reported.
UniProt Q8N568, sequence (whole entry, looked up): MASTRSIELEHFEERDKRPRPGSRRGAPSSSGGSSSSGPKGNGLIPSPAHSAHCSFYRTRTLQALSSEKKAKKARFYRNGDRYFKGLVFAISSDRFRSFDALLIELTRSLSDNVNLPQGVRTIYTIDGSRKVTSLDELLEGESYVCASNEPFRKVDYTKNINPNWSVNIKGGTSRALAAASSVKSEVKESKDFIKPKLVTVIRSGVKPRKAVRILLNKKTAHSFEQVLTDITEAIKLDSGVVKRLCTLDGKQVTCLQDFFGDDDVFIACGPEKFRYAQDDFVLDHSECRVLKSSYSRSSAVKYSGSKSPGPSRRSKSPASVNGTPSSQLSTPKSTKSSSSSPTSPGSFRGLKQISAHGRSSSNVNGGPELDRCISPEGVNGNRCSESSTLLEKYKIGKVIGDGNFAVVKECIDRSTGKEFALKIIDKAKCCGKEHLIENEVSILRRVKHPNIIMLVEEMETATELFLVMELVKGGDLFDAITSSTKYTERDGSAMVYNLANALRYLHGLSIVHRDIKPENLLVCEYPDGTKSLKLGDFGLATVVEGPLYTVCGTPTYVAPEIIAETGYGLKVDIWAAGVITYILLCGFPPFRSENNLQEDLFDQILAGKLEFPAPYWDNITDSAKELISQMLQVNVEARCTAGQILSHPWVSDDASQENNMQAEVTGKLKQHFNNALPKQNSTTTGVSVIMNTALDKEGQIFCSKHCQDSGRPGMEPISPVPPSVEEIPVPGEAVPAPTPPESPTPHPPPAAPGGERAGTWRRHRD

Cn1cncc1[C@@](N)(c1ccc(Cl)cc1)c1ccc2c(c1)c(-c1cccc(Cl)c1)cc(=O)n2C gave an AUC(0-inf) of 4840 ng·h/mL (human; 200 mg/m2).
COCCc1ccc(OCC(O)CNC(C)C)cc1 (stereo not shown) has an AUC(0-inf) of 2140 ng·h/mL (human; 400 mg single dose, fasted).
Nc1cc(C(F)(F)F)c(-c2nc(N3CCOCC3)nc(N3CCOCC3)n2)cn1 gave a remaining activity of 100% (DCLK2 (Homo sapiens, UniProt Q8N568); enzyme activity; 10 µM; relative to: untreated).
Cn1c(Cn2ccc(C(F)(F)F)c(Oc3cc(Cl)cc(C#N)c3)c2=O)n[nH]c1=O has an AUC(0-inf) of 250 µM·h (human; 1200 mg single dose).
For Cc1cc(C)c(CNC(=O)c2cc(Cl)c3c(c2C)O[C@@](C)([C@H]2CC[C@H](N(C)C)CC2)O3)c(=O)[nH]1, the AUC(0-inf) was 737 ng·h/mL (human; 25 mg).
CNCc1cc(-c2ccccc2F)n(S(=O)(=O)c2cccnc2)c1 gave an AUC(0-inf) of 96.8 ng·h/mL (human; 10 mg, multiple dose).
CC(C)c1nc(N(C)S(C)(=O)=O)nc(-c2ccc(F)cc2)c1/C=C/[C@@H](O)C[C@@H](O)CC(=O)O has an AUC(0-inf) of 207 ng·h/mL (BCRP substrate; human, plasma; dose not given, together with: pirtobrutinib multiple doses).
For C#C[C@]1(O)CC[C@H]2[C@@H]3CCC4=CC(=NO)CC[C@@H]4[C@H]3CC[C@@]21CC (mixture of isomers), the AUC(0-inf) was 9.52 ng·h/mL (human; 0.18 mg norgestimate single dose, fasted).
COc1cc2c(Oc3ccc4[nH]c(C)cc4c3F)ccnc2cc1OCC1(N)CC1 has an AUC(0-inf) of 562 ± 328 ng·h/mL (human; 10 mg single dose).
For Cc1nsc(-c2nnc3n2CCN(C(=O)c2ccc(F)cc2)[C@@H]3C)n1, the AUC(0-inf) was 2760 ng·h/mL (human; oral, 45 mg, single dose, fed).
With C[C@@H](Oc1ccc(S(C)(=O)=O)cc1C(=O)N1C[C@@H]2C[C@]2(c2cc(C(F)(F)F)on2)C1)C(F)(F)F the AUC(0-inf) was 17.1 µM·h (human; oral, 50 mg, solution, fasted, single dose).
With Cc1ccccc1CN1C(=O)C2=C(CCN(Cc3ccccc3)C2)N2CCN=C12 the AUC(0-inf) was 18700 ng·h/mL (human; oral, 625 mg, fasted, single dose).
C[C@H]1CO[C@@H]2Cn3cc(C(=O)NCc4ccc(F)cc4F)c(=O)c(O)c3C(=O)N12 has an AUC(0-inf) of 62400 ng·h/mL (human; oral solution, 10 mg, geometric mean).

Excerpt of the above:
CNCc1cc(-c2ccccc2F)n(S(=O)(=O)c2cccnc2)c1 gave an AUC(0-inf) of 96.8 ng·h/mL (human; 10 mg, multiple dose).
Cn1c(Cn2ccc(C(F)(F)F)c(Oc3cc(Cl)cc(C#N)c3)c2=O)n[nH]c1=O has an AUC(0-inf) of 250 µM·h (human; 1200 mg single dose).
